# Results gathered from unrelated publications.
# Compare with care: the assays were run in different laboratories. ± gives the spread as reported.
SMILES,target or system,assay,test system,setting,how to read,quantity,value
N#Cc1ccc(-c2ccc(-c3cccs3)o2)cc1F,Salmonella enterica,sodium azide mutagenicity,TA1535,"20 µM, 48 h, together with: sodium azide 2 µg/plate co-exposure",,inhibition,81 ± 10.4%
COc1cc([C@@H]2c3cc4c(cc3[C@@H](O[C@@H]3O[C@@H]5CO[C@@H](C)O[C@H]5[C@H](O)[C@H]3O)[C@H]3COC(=O)[C@H]23)OCO4)cc(OC)c1O,human respiratory syncytial virus,viral replication,BEAS-2B,"5 µM, 40 h",,inhibition,80 ± 6.6%
CCn1cc(C(=O)NC2CC2)c(=O)c2cc(F)c(N3CCN(C(=O)c4ccco4)CC3)cc21,Mycolicibacterium smegmatis,microbial growth,,50 µM,,inhibition,~20%
Nc1ncnc2c1ncn2CCOCP(=O)(O)O,human alphaherpesvirus 2,viral replication,,"0.04 µg/mL, 144 h",,inhibition,80%
N=C(N)c1ccc(-c2ccc(-c3cccs3)o2)c(F)c1,Salmonella enterica,sodium azide mutagenicity,TA1535,"10 µM, 48 h, together with: sodium azide 2 µg/plate after pre-exposure",,inhibition,32%
CN[C@@](C)(C[18F])C(=O)O,A549 tumour model,,"host not given, blood","30 min, tumour-bearing",,tracer uptake,1.9 %ID/g
CC(=O)[C@]1(O)Cc2c(O)c3c(c(O)c2[C@@H](O[C@H]2C[C@H](N)[C@H](O)[C@H](C)O2)C1)C(=O)c1ccccc1C3=O,human respiratory syncytial virus,viral replication,BEAS-2B,"5 µM, 40 h",,inhibition,95 ± 1.3%
N=C(N)c1ccc(-c2ccc(-c3ccco3)o2)cc1F,Salmonella enterica,sodium azide mutagenicity,TA1535,"20 µM, 48 h, together with: sodium azide 2 µg/plate co-exposure",,inhibition,107%
Cc1nc2ccc(CN(C)c3ccc(C(=O)N[C@@H](CCC(=O)O)C(=O)O)s3)cc2c(=O)[nH]1,human respiratory syncytial virus,viral replication,BEAS-2B,"5 µM, 40 h",,inhibition,91 ± 1%
C[C@H](Cn1cnc2c(N)ncnc21)OCP(=O)(O)O,human alphaherpesvirus 2,virus production,human monocytes/macrophages,"1 µg/mL, 6 days",,inhibition,34%
CCCCCNC(=O)c1cn(CC)c2cc(N3CCN(C(=O)c4ccco4)CC3)c(F)cc2c1=O,Mycolicibacterium smegmatis,microbial growth,,50 µM,,inhibition,~50%
CN(CCOc1ccc(CC2SC(=O)NC2=O)cc1)c1ccccn1 (centres unmarked),human respiratory syncytial virus,viral replication,BEAS-2B,"5 µM, 40 h",,inhibition,85 ± 5.8%
CCN(CC)CCNC(=O)c1cn(CC)c2cc(N3CCN(C(=O)c4ccco4)CC3)c(F)cc2c1=O,Mycolicibacterium smegmatis,microbial growth,,50 µM,,inhibition,~20%
N=C(N)c1ccc(-c2ccc(-c3ccco3)o2)c(F)c1,Salmonella enterica,sodium azide mutagenicity,TA1535,"20 µM, 48 h, together with: sodium azide 2 µg/plate co-exposure",,inhibition,91%
CCn1cc(C(=O)NC(C)c2ccccc2)c(=O)c2cc(F)c(N3CCN(C(=O)c4ccco4)CC3)cc21 (centres unmarked),Mycolicibacterium smegmatis,microbial growth,,50 µM,,inhibition,~50%
N#Cc1ccc(-c2ccc(-c3ccco3)o2)c(F)c1,Salmonella enterica,sodium azide mutagenicity,TA1535,"10 µM, 48 h, together with: sodium azide 2 µg/plate after pre-exposure",,inhibition,83%
COc1cccc2c1C(=O)c1c(O)c3c(c(O)c1C2=O)C[C@@](O)(C(=O)CO)C[C@@H]3O[C@H]1C[C@H](N)[C@@H](O)[C@H](C)O1,human respiratory syncytial virus,viral replication,BEAS-2B,"5 µM, 40 h",,inhibition,62 ± 6.3%
COC(=O)[C@H](CCSC)NC(=O)[C@H]1O[C@@H](O[C@H]2[C@@H](O[C@H]3CC[C@]4(C)[C@H]5C(=O)C=C6[C@@H]7C[C@@](C)(C(=O)N[C@@H](CCSC)C(=O)OC)CC[C@]7(C)CC[C@@]6(C)[C@]5(C)CC[C@H]4C3(C)C)O[C@H](C(=O)N[C@@H](CCSC)C(=O)OC)[C@@H](O)[C@@H]2O)[C@H](O)[C@@H](O)[C@@H]1O,dengue virus type 2,viral replication,Vero E6,"10 µM, 96 h",reference: infected untreated,inhibition,> 50%
Cc1c2oc3c(C)ccc(C(=O)N[C@@H]4C(=O)N[C@H](C(C)C)C(=O)N5CCC[C@H]5C(=O)N(C)CC(=O)N(C)[C@@H](C(C)C)C(=O)O[C@@H]4C)c3nc-2c(C(=O)N[C@@H]2C(=O)N[C@H](C(C)C)C(=O)N3CCC[C@H]3C(=O)N(C)CC(=O)N(C)[C@@H](C(C)C)C(=O)O[C@@H]2C)c(N)c1=O,human respiratory syncytial virus,viral replication,BEAS-2B,"5 µM, 40 h",,inhibition,52 ± 9.6%
N#Cc1ccc(-c2ccc(-c3ccco3)o2)cc1F,Salmonella enterica,sodium azide mutagenicity,TA1535,"10 µM, 48 h, together with: sodium azide 2 µg/plate after pre-exposure",,inhibition,62%

# For quick reference, copied from above:
SMILES,target or system,assay,test system,setting,how to read,quantity,value
N#Cc1ccc(-c2ccc(-c3ccco3)o2)cc1F,Salmonella enterica,sodium azide mutagenicity,TA1535,"10 µM, 48 h, together with: sodium azide 2 µg/plate after pre-exposure",,inhibition,62%
